Experimental data of several laboratories.
Parts stem from different laboratories: compare values within a part only.

Study 1 — technique: Spec-seq; molecule type: double-stranded DNA, one strand shown; sample: in vitro; concentration: not given; setting: whole probe, mean of replicates; baseline: not given; reading: lower = stronger binding; measurement: relative binding energy; shared flanks, not repeated: GAGTCGTCTCGTCAGCAC … CCGTAGAGCACTCAGGTC
Target: POU, POU domain (Salpingoeca helianthica)
Construct (chain): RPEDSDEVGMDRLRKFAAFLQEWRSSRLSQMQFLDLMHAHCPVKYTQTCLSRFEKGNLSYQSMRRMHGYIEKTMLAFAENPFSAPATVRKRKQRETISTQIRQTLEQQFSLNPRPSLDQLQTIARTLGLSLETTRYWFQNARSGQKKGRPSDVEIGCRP
ATCAGCAT: 1.16 ln ratio
ACGATAAT: 0.347 ln ratio
ATTAAGAT: 0.401 ln ratio
CAACTAAT: 0.359 ln ratio
ATGGGCAT: 1.36 ln ratio
ATGCCTCT: 1.04 ln ratio
ATCATAAT: 0.397 ln ratio
TATTTAAT: -0.778 ln ratio
GCCTTAAT: 0.44 ln ratio
ATCCCTAT: 1.09 ln ratio
ATGCTTGA: 1.45 ln ratio
CTCATAAT: 0.103 ln ratio
ATGCCATC: 1.09 ln ratio
GTCATAAT: 0.451 ln ratio
TTGATAAT: 0.148 ln ratio
ATGCAATT: 0.67 ln ratio
ATGCGTAG: 1.38 ln ratio
ATGCTATG: 1.12 ln ratio
CGCATAAT: 0.504 ln ratio
ATGCTCTT: 1.31 ln ratio
CTGGTAAT: 0.506 ln ratio
ATGCGGAG: 1.48 ln ratio
ATGCTGAG: 1.35 ln ratio
CAATTAAT: -1.61 ln ratio
ATTGTTAT: -0.775 ln ratio

Study 2 — technique: RNA Bind-n-Seq; molecule type: RNA; sample: in vitro; concentration: 1 µM; setting: whole 134-nt RNA, ends assumed; with: 150 mM KCl; baseline: input library; reading: higher = stronger binding; measurement: log2 enrichment
Target: Ras GTPase-activating protein-binding protein 1, C-terminal RGG region (G3BP1, Homo sapiens, UniProt Q13283)
Chain of UniProt Q13283 (whole entry, looked up): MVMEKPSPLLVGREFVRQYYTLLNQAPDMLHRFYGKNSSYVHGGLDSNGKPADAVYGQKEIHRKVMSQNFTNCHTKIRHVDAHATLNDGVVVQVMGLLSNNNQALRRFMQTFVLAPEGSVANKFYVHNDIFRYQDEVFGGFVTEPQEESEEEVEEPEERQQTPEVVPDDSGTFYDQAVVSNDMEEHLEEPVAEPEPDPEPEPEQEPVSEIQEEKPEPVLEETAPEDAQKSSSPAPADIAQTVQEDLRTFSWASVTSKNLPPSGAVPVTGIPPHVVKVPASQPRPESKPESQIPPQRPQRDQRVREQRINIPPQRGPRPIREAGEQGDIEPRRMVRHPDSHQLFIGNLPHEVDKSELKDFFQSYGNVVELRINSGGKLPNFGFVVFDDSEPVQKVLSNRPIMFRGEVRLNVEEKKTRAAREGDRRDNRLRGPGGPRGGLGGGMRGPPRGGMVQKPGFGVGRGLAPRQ
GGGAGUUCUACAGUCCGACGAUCGCAGGAAGUAAAAACAAAUAGAAAUGCUUCGGAUAGUGGCAGGGGUGGGGGUUGCUAAGGAAAGGGUGGGAUGGGAGUGGGUAAAGAGUUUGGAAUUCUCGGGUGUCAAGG: 1.77
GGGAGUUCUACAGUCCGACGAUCAAGUCCUGUGCUACACAUCGUAUGUACCGAAUCGGGGUUUGGGGUGGGGUUUGGGGAAAGUAUUAUGUUACGCCGUUCGGAUCUGCACUUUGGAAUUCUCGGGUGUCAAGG: 1.31
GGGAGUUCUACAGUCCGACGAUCCUGUGCUACACAUCGUAUGUACCGAAUCGGCCCCCCCGGGGCCCCCCCGGGGCCCCCCCGGGAAAGUAUUAUGUUACGCCGUUCGGAUCUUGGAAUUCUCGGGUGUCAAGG: -2.34
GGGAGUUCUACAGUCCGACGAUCCCUCAAGUCCUGUGCUACACAUCGUAUGUACCGAAUCGGAAGGAAGGAAGGGAAAGUAUUAUGUUACGCCGUUCGGAUCUGCACUUCCAGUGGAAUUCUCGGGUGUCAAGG: -0.72
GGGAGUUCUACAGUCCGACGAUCCAAGUCCUGUGCUACACAUCGUAUGUACCGAAUCGGGGCCCGGGGCCCGGGCCCGGAAAGUAUUAUGUUACGCCGUUCGGAUCUGCACUUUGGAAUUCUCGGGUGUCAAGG: -2.09
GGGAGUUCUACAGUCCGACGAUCCUCAAGUCCUGUGCUACACAUCGUAUGUACCGAAUCGGGCCGGCCGGGCCGGGAAAGUAUUAUGUUACGCCGUUCGGAUCUGCACUUCCAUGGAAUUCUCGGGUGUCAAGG: -1.24
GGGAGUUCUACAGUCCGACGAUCCCCAGACAACACGCACCCACACAGACACAGAGGGAAGGGGUUGGGAUGGGGACAGGGUGCACAGCAGGGCGGGGUAGGACCCCAGCCCCUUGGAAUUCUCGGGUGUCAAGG: 0.0806
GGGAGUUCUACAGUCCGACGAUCAGUCCUGUGCUACACAUCGUAUGUACCGAAUCGGGUUUUUGGGAAAAAGGGUUUGGGAAAGUAUUAUGUUACGCCGUUCGGAUCUGCACUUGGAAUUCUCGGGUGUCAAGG: 0.74
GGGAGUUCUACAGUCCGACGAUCGUCCUGUGCUACACAUCGUAUGUACCGAAUCGGGUUUUGGGGUUUUGGGGUUUUGGGGAAAGUAUUAUGUUACGCCGUUCGGAUCUGCACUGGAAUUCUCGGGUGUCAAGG: 0.68
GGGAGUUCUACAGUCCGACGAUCACCAUGCAGGUGGGCAUCUUUGGGAAGUGGGGCAAGGGGGGGAUAGGGAGAAAGGUAACACUUUGGGAACAGGUGGUCCCAGGUCGUUUCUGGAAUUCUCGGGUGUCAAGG: -1.11
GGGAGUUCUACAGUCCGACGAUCCACAGACAACACGCACCCACACAGACACAGAGGGAAGGGGUUGGGAUGGGGACAGGGUGCACAGCACGGCGGGGUAGGACCCCAGCCCCUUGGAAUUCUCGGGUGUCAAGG: -1.13
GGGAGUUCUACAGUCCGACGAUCCAAGUCCUGUGCUACACAUCGUAUGUACCGAAUCGGUGGUUUUUUUGGAAAAAGGAAAGUAUUAUGUUACGCCGUUCGGAUCUGCACUUCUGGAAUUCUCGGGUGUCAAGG: -1.63
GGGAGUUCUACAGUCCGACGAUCUAACUUUAGAGGAGGAUCUGAUGGAUAUGGCAGUGGACGUGGAUUUGGGGAUGGCUAUCAUGGGUAUGGAGGAGGACCUGGAGGUGGCAAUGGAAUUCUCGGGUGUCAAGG: -0.995
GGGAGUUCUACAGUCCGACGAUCUGGGAGGUGGAUUUUGUUUAUUUUUUCAGCUCAUUUCCAGGGGUGGGAAUUUUUUUUUAAUAUGUGUCAUGAAUAAAGUUGUUUUUGAAAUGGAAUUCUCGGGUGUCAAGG: 3.72

Study 3 — technique: universal PBM; molecule type: double-stranded DNA, one strand shown; sample: in vitro; concentration: 600 nM; reading: higher = stronger binding; measurement: E-score
Target: Sal-like protein 4, full length isoform A (SALL4, Homo sapiens, UniProt Q9UJQ4, residues 1-1053)
Chain of UniProt Q9UJQ4 (whole entry, looked up): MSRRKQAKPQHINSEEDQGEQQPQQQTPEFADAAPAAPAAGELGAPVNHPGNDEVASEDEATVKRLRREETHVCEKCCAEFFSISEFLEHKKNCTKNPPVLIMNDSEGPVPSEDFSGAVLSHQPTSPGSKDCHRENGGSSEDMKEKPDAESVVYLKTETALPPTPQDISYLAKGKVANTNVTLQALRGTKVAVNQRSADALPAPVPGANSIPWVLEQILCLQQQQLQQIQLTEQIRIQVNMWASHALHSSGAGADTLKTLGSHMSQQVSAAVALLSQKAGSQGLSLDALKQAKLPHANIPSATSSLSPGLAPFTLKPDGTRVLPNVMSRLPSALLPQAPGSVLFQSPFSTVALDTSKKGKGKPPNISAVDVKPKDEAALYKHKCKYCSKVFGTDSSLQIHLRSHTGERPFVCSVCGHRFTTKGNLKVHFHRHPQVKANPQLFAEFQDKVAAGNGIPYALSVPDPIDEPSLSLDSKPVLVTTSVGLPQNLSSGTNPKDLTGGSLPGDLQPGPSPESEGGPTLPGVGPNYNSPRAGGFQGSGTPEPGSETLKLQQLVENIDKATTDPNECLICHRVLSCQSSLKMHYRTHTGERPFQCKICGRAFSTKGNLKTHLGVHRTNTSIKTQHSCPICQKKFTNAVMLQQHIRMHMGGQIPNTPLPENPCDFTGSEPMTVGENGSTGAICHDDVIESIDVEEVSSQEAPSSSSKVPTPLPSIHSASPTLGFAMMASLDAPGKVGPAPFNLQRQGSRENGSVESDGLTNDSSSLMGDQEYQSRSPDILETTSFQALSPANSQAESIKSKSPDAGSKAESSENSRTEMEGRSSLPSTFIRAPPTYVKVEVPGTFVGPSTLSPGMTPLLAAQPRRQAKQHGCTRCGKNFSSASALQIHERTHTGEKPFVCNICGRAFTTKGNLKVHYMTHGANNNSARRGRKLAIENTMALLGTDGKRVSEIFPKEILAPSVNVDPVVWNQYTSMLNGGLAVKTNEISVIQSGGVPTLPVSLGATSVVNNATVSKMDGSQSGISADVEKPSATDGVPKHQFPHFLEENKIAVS
Setting: 8-mer, flanks averaged, mean of replicates
AAACACCA: -0.0252
CCCCCTAC: -0.278
AGGTAGGA: -0.0132
ACTTAATG: 0.217
GCTCTTTA: -0.13
CGGGTACA: -0.241
CCTTCCTA: -0.0981
AGCAACCA: 0.0482
AAAGACCC: -0.0415
GACCGCTA: -0.194
CCGTAGGA: -0.202
CAATTTGA: 0.257
ATTTGCGA: 0.261
ACTGACAG: 0.0414
AATGGAGT: 0.0518
CGAATGAC: 0.19
ACTCGCCG: -0.18
CGACAGTC: -0.26
CTCTTCAG: -0.123
CAGCACCG: -0.312
AAAGCCCA: -0.113

Study 4 — technique: RNA Bind-n-Seq; molecule type: RNA; sample: in vitro; concentration: 365 nM; baseline: no-protein control; reading: higher = stronger binding; measurement: RBNS enrichment (R)
Target: RNA binding protein fox-1 homolog 2, RRM domain, GST-SBP tag (RBFOX2, Homo sapiens, UniProt O43251-10, residues 100-194)
Setting: natural RNA segment, single round, ends assumed
Residues (chain): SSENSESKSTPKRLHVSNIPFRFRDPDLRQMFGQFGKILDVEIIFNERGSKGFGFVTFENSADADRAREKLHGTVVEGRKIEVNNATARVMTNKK
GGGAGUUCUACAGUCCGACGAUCGUACCAGUAUGGCGACGACCAGGGCAUUGAUUAUAGAGUCACACACAGGAGCGCAGUAUUUAGUCCAUUGUUUUAUCCAGUGAGACCCAAGCUAGCCUUGAAUAAUUCUUUGGAAUUCUCGGGUGCCAA: 0.274
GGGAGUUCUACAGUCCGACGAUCAAGCUUGAAUAUUGUUUUUGCACCAGAGGAGAAGUGAGGAAAUUCGGAGCUAUACGUGUGUGCAGAGGGUUGCUACCUAUGGGUUUACGCUUAAUUUUAAUUGGGAGAAAUGGAAUUCUCGGGUGCCAA: 0.948
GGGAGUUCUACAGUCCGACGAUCCCUCUCUCUUCUGUCUUUAGAAAGCUGUGAUCGUGCGUGCAAUUAUUUGAAAGGCAACAUAGUCAAUUAAGAAACCUGUAGUUGUUAAGGAAGAAAUUGUUGGCAAGAUAUGGAAUUCUCGGGUGCCAA: 0.372
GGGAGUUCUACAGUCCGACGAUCUGUCUUUCUGGUGCCCAAACUUUCAGGCACUUUUCAAAUUUAAUAAGGAACCAUGUAAUGGUAGCAGUACCUCCCUAAAGCAUUUUGAGGUAGGGGAGGUAUCCAUUCAUUGGAAUUCUCGGGUGCCAA: 0.765
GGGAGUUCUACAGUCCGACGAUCAAGUUAGAGUUGUGGAAAGCAGUAUUGUUUUCUUCUCUAGUGAUUGUUACCCUACACAUUUCAUGGAAGCAUCUUCACAAAAUAUCAGACACAGUGGAAGGGGGAAAAAAUGGAAUUCUCGGGUGCCAA: 0.835
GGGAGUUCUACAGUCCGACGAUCAAAUCGUGUUCCAAGAGCACUUUGUAACUCACUGAGGGGGAGGGGAAGCACCUUUUGGGUUUGCGAUACCAAUCAACAUAAGGUGUUGUUGACUCGGGUACAAUAAAACUUGGAAUUCUCGGGUGCCAA: 0.583
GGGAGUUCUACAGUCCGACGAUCUACAGUGAUAUUGGUCCAGUUCCUCCUGACUCUUCACUCUACCACCCAAAAGUCAAUGUAGACCUACGAAACGGUCAGGUGAUGGGCUAGGGACGUAUCUUCAAACUCCAUGGAAUUCUCGGGUGCCAA: 0.31
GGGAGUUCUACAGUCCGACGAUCUUCCUCCAGAGCGGCGUUAGACAGGAUAGCGGUCCGCACCGGGGGCCGUGUUUAAGGGAGAUUGGAGGAGGGGAAAGGCGGAAAGGUCUUGGGACUCUAAGCUAUUGGGUUGGAAUUCUCGGGUGCCAA: 0.685
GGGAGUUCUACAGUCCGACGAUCUGUCAAUUUGCAUCAUUUGCAUAUUGAUUUCAAGUCUCCUAAUUUGGAAUGGGUAAAGUACAAAUGUUAAUGCAACAUAGUACAGUUGUAUUUGUCCUUCAUAUUCAGGAUGGAAUUCUCGGGUGCCAA: 0.411
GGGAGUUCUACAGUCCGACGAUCUUUUAUAUCUUGGCAGGUAGGAAUAUUAUAUUUGGAUGCAGAGUUCAGGGAAGAUAAGUUGGAAACACUAAAUGUUAAAGAUGUAGCAAACCCUGUCAAACAUUAGUACUUGGAAUUCUCGGGUGCCAA: 0.534
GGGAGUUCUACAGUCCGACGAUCCAUAGUUACUAAGUUUUUAUGAACUGUUGUGUCCUGUUAAUGCAUAUUGCCCUGUGACUCCAGUAUAUCUCACCUGUACUGACCAAACCUAAAUAAACAUUUUUAUUACGUGGAAUUCUCGGGUGCCAA: 0.444
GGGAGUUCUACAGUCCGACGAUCGCACUCUCAUCUGCAGGACUCUGCUUGAUCCUCUGCUUCAUAGCCCUUCCCCAUCUCUCCUCACCAUUCUGCCUACAAGGCUUCUAGCAGCACGGGGGCCCGGAGGGAGAUGGAAUUCUCGGGUGCCAA: 3.44

Some of these lines once more (study 3):
CAGCACCG: -0.312
GACCGCTA: -0.194
ACTTAATG: 0.217
CGACAGTC: -0.26
ATTTGCGA: 0.261
AATGGAGT: 0.0518
CCTTCCTA: -0.0981
AAAGCCCA: -0.113
CTCTTCAG: -0.123
CGGGTACA: -0.241
ACTGACAG: 0.0414
CGAATGAC: 0.19
